Assay results pooled from the literature.
Organism: Klebsiella pneumoniae

SMILES | test | test system | setting | MIC
C=CCO/N=C(\C(=O)N[C@@H]1C(=O)N(S(=O)(=O)O)[C@H]1C)c1csc(N)n1 | agar dilution | 2146 NDM-1 |  | > 128 µg/mL
N=C(N)NCCC[C@@H]1NC(=O)[C@H](CCCNC(=N)N)NC(=O)[C@@H](C(c2ccccc2)c2ccccc2)NC(=O)[C@H](Cc2c[nH]c3ccccc23)NC(=O)[C@@H](C(c2ccccc2)c2ccccc2)NC(=O)[C@@H](CCCNC(=N)N)NC(=O)[C@@H](CCCNC(=N)N)NC1=O |  | ATCC BAA1705, KPC-2 carbapenem-resistant |  | 32 µg/mL
COc1ccc2ccc(O)c(/C=N/[C@H]3CCCC[C@H]3/N=C/c3cccc(F)c3O)c2c1 | bacterial growth, broth microdilution | carbapenem-resistant clinical isolate |  | > 40 µM
CSCC[C@H](NC=O)C(=O)N[C@@H](CCCNC(=N)N)C(=O)N[C@H](C(=O)NCC(=O)N[C@@H](CC(N)=O)C(=O)N[C@@H](C)C(=O)N[C@@H](CC(N)=O)C(=O)NCC(=O)N1CCN(c2cc3c(cc2F)c(=O)c(C(=O)O)cn3C2CC2)CC1)[C@@H](C)O | broth dilution | ATCC 27736 |  | 16 µM
CCn1c(-c2ccc(-c3ccc(F)cc3)cc2)c(-c2ccc(-c3ccc(F)cc3)cc2)n(CC)c1=[Se] | broth microdilution | carbapenem-resistant BAA-1705 | 24 h | > 40 µM
CC[C@H](C)[C@H](NC(=O)[C@@H](CCCNC(=N)N)NC(=O)[C@H](CCCNC(=N)N)NC(=O)[C@@H]1CCCN1C(=O)[C@@H]1CCCN1C(=O)[C@H](CCCNC(=N)N)NC(=O)[C@H](Cc1c[nH]c2ccccc12)NC(=O)[C@H](CCCNC(=N)N)NC(=O)[C@@H]1CCCN1C(=O)[C@H](CC(C)C)NC(=O)[C@H](Cc1ccc(O)cc1)NC(=O)[C@@H]1CCCN1C(=O)[C@@H]1CCCN1C(=O)[C@H](CCCCN)NC(=O)[C@H](CC(=O)O)NC(=O)[C@@H](N)C(C)C)C(=O)N[C@@H](Cc1ccc(O)cc1)C(=O)N[C@@H](CC(N)=O)C(=O)N[C@H](CCCNC(=N)N)C(N)=O | broth microdilution | DSM 681 | 18 h, 37 °C, 25% MHB2 | 4 µg/mL
CC[C@H](C)[C@H](N)C(=O)N[C@@H](CCCNC(=N)N)C(=O)N[C@H](C(=O)N[C@@H](Cc1c[nH]c2ccccc12)C(=O)N[C@@H](CCCCN)C(=O)N[C@@H](CCCCN)C(=O)N[C@H](C(=O)N[C@H](C(=O)N[C@@H](CCCNC(=N)N)C(=O)N[C@@H](CCCCN)C(=O)N[C@@H](Cc1c[nH]c2ccccc12)C(=O)N[C@@H](CCCCN)C(=O)N[C@@H](C)C(=O)N[C@H](C(=O)N[C@@H](Cc1c[nH]c2ccccc12)C(=O)N[C@@H](Cc1c[nH]cn1)C(N)=O)[C@@H](C)CC)C(C)C)[C@@H](C)CC)C(C)C | broth dilution | ATCC 700603 |  | 25 µM
CC1(C)[C@H](NC(=O)/C(=N\OCc2cc(=O)c(O)cn2O)c2csc(N)n2)C(=O)N1OS(=O)(=O)O | agar dilution | 2146 NDM-1 |  | 1 µg/mL
CC[C@H](C)[C@H](NC(=O)[C@@H](CCCNC(=N)N)NC(=O)[C@H](CCCNC(=N)N)NC(=O)[C@@H]1CCCN1C(=O)[C@@H]1CCCN1C(=O)[C@H](CCCNC(=N)N)NC(=O)[C@@H]1CCCN1C(=O)[C@H](CCCNC(=N)N)NC(=O)[C@@H]1CCCN1C(=O)[C@H](CC(C)C)NC(=O)[C@H](Cc1ccc(O)cc1)NC(=O)[C@H](Cc1ccc(O)cc1)NC(=O)[C@@H]1CCCN1C(=O)[C@H](CCCCN)NC(=O)[C@H](CC(=O)O)NC(=O)[C@@H](N)C(C)C)C(=O)N[C@@H](Cc1ccc(O)cc1)C(=O)N[C@@H](CC(N)=O)C(=O)N[C@H](CCCNC(=N)N)C(N)=O | broth microdilution | DSM 681 | 18 h, 37 °C, 25% MHB2 | 8 µg/mL
C#CCNC(=O)[C@H]1NC(=O)[C@H]2NC(=O)[C@H](NC(=O)[C@@H]3NC(=O)[C@H](CC(N)=O)NC(=O)[C@H](NC(=O)[C@@H](CC(C)C)NC)[C@H](O)c4ccc(c(Cl)c4)Oc4cc3cc(c4O[C@@H]3O[C@H](CO)[C@@H](O)[C@H](O)[C@H]3O[C@H]3C[C@](C)(N)[C@H](O)[C@H](C)O3)Oc3ccc(cc3Cl)[C@H]2O)c2ccc(O)c(c2)-c2c(O)cc(O)cc21 | broth microdilution | ATCC 27736, cation-adjusted Mueller-Hinton broth | 18 to 20 h, 37 °C, 0.002% polysorbate 80 | > 128 µg/mL
CC[C@H](C)[C@H](NC(=O)[C@H](C)NC(=O)[C@@H](NC(=O)[C@H](CC(=O)O)NC(=O)[C@H](CCCCN)NC(=O)[C@H](CO)NC(=O)[C@@H](NC(=O)[C@H](CC(N)=O)NC(=O)[C@H](C)NC(=O)[C@@H](NC(=O)[C@H](CCC(=O)O)NC(=O)[C@H](CCCCN)NC(=O)[C@@H](NC(=O)[C@@H](NC(=O)[C@H](Cc1c[nH]cn1)NC(=O)[C@H](CCCCN)NC(=O)[C@@H](NC(=O)[C@H](CCCCN)NC(=O)[C@H](CCCCN)NC(=O)[C@@H](NC(=O)[C@H](CC(C)C)NC(=O)[C@H](CCCCN)NC(=O)[C@H](CC(N)=O)NC(=O)[C@H](Cc1ccccc1)NC(=O)[C@H](CCCNC(=N)N)NC(=O)[C@H](CCCCN)NC(=O)[C@H](CCCNC(=N)N)NC(=O)[C@H](Cc1ccccc1)NC(=O)CN)C(C)C)C(C)C)[C@@H](C)O)[C@@H](C)CC)[C@@H](C)O)C(C)C)C(C)C)C(=O)N[C@H](C(=O)N[C@@H](C)C(=O)NCC(=O)N[C@@H](CO)C(=O)NCC(=O)N[C@H](C(=O)N[C@@H](C)C(=O)N[C@H](C(=O)NCC(=O)N[C@@H](C)C(=O)N[C@@H](C)C(=O)N[C@@H](CCSC)C(N)=O)C(C)C)C(C)C)C(C)C |  | DSM 30104, CAMHB with 10% mouse serum | 150 mM NaCl | 1 µg/mL
COc1ccc2ccc(O)c(/C=N/[C@H]3CCCC[C@H]3/N=C/c3c(O)cccc3OC)c2c1 | bacterial growth, broth microdilution | carbapenem-resistant clinical isolate |  | > 40 µM
CC[C@H](C)[C@H](NC(=O)[C@H](Cc1c[nH]c2ccccc12)NC(=O)[C@H](CCCNC(=N)N)NC(=O)[C@@H](N)CCCNC(=N)N)C(=O)N[C@@H](CCCNC(=N)N)C(=O)N[C@@H](Cc1c[nH]c2ccccc12)C(=O)N[C@H](C(=O)N[C@H](C(N)=O)[C@@H](C)O)[C@@H](C)CC |  | 13883 |  | 512 µg/mL
CC1(C)[C@H](NC(=O)/C(=N\OCCN)c2nsc(N)n2)C(=O)N1OS(=O)(=O)O | agar dilution | 09-20, NDM-1 |  | 32 µg/mL
CC[C@H](C)[C@H](NC(=O)[C@@H](CCCNC(=N)N)NC(=O)[C@H](CCCNC(=N)N)NC(=O)[C@@H]1CCCN1C(=O)[C@@H]1CCCN1C(=O)[C@H](CCCNC(=N)N)NC(=O)[C@@H]1CCCN1C(=O)[C@H](CCCNC(=N)N)NC(=O)[C@@H]1CCCN1C(=O)[C@H](CC(C)C)NC(=O)[C@H](Cc1c[nH]c2ccccc12)NC(=O)[C@@H]1CCCN1C(=O)[C@@H]1CCCN1C(=O)[C@H](CCCCN)NC(=O)[C@H](CC(=O)O)NC(=O)[C@@H](N)C(C)C)C(=O)N[C@@H](Cc1ccc(O)cc1)C(=O)N[C@@H](CC(N)=O)C(=O)N[C@H](CCCNC(=N)N)C(N)=O | broth microdilution | DSM 681 | 18 h, 37 °C, 25% MHB2 | 4 µg/mL
C#CCO/N=C(\C(=O)N[C@@H]1C(=O)N(S(=O)(=O)O)[C@H]1C)c1csc(N)n1 | agar dilution | 2146 NDM-1 |  | > 128 µg/mL
COc1ccc2ccc(O)c(/C=N/[C@H]3CCCC[C@H]3/N=C/c3c(C)cccc3O)c2c1 | bacterial growth, broth microdilution | carbapenem-resistant clinical isolate |  | > 40 µM
N=C(N)NCCC[C@@H]1NC(=O)[C@@H](CCCNC(=N)N)NC(=O)[C@H](CCCNC(=N)N)NC(=O)[C@@H](C(c2ccccc2)c2ccccc2)NC(=O)[C@@H](C(c2ccccc2)c2ccccc2)NC(=O)[C@@H](C(c2ccccc2)c2ccccc2)NC(=O)[C@@H](CCCNC(=N)N)NC1=O |  | ATCC BAA1705, KPC-2 carbapenem-resistant |  | > 64 µg/mL
CC[C@H](C)[C@H](NC(=O)[C@@H](CCCNC(=N)N)NC(=O)[C@H](CCCNC(=N)N)NC(=O)[C@@H]1CCCN1C(=O)[C@@H]1CCCN1C(=O)[C@H](CCCNC(=N)N)NC(=O)[C@@H]1CCCN1C(=O)[C@H](CCCNC(=N)N)NC(=O)[C@@H]1CCCN1C(=O)[C@H](CCSC)NC(=O)[C@H](Cc1ccc(O)cc1)NC(=O)[C@@H]1CCCN1C(=O)[C@@H]1CCCN1C(=O)[C@H](CCCCN)NC(=O)[C@H](CC(=O)O)NC(=O)[C@@H](N)C(C)C)C(=O)N[C@@H](Cc1ccc(O)cc1)C(=O)N[C@@H](CC(N)=O)C(=O)N[C@H](CCCNC(=N)N)C(N)=O | broth microdilution | DSM 681 | 18 h, 37 °C, 25% MHB2 | 4 µg/mL
CCCCCCCC(=O)N[C@@H](CCN)C(=O)N[C@H](C(=O)N[C@@H](CCN)C(=O)N[C@H]1CCNC(=O)[C@H]([C@@H](C)O)NC(=O)[C@H](CCN)NC(=O)[C@H](CCN)NC(=O)[C@H](CCc2ccccc2)NC(=O)[C@@H](CC(C)C)NC(=O)[C@H](CCN)NC1=O)[C@@H](C)O | broth microdilution | ATCC 13883, colistin-susceptible |  | 1 to 2 µg/mL
CC1(C)[C@H](NC(=O)/C(=N\OCCN)c2csc(N)n2)C(=O)N1OS(=O)(=O)O | agar dilution | 09-20, NDM-1 |  | 8 µg/mL
CN[C@@H]1[C@H](O)[C@H](NC)[C@H]2O[C@]3(O)[C@H](O[C@@H]2[C@H]1O)O[C@H](C)C[C@H]3NC(=O)Cc1ccccn1 | microbial growth, broth dilution | ATCC33495 |  | > 200 µg/mL
CCCCCCCC(=O)N[C@@H](CCN)C(=O)N[C@H](C(=O)N[C@@H](CCN)C(=O)N[C@H]1CCNC(=O)[C@H]([C@@H](C)O)NC(=O)[C@H](CCN)NC(=O)[C@H](CCN)NC(=O)[C@H](Cc2ccccc2)NC(=O)[C@@H](CCCc2ccccc2)NC(=O)[C@H](CCN)NC1=O)[C@@H](C)O | broth microdilution | ATCC 13883, colistin-susceptible |  | 2 to 4 µg/mL

A few entries again:
SMILES | test | test system | setting | MIC
CC1(C)[C@H](NC(=O)/C(=N\OCc2cc(=O)c(O)cn2O)c2csc(N)n2)C(=O)N1OS(=O)(=O)O | agar dilution | 2146 NDM-1 |  | 1 µg/mL
CN[C@@H]1[C@H](O)[C@H](NC)[C@H]2O[C@]3(O)[C@H](O[C@@H]2[C@H]1O)O[C@H](C)C[C@H]3NC(=O)Cc1ccccn1 | microbial growth, broth dilution | ATCC33495 |  | > 200 µg/mL
